Published values pooled from the literature.
Compare with care: the assays were run in different laboratories.
Sequence of UniProt O00444 (whole entry, looked up): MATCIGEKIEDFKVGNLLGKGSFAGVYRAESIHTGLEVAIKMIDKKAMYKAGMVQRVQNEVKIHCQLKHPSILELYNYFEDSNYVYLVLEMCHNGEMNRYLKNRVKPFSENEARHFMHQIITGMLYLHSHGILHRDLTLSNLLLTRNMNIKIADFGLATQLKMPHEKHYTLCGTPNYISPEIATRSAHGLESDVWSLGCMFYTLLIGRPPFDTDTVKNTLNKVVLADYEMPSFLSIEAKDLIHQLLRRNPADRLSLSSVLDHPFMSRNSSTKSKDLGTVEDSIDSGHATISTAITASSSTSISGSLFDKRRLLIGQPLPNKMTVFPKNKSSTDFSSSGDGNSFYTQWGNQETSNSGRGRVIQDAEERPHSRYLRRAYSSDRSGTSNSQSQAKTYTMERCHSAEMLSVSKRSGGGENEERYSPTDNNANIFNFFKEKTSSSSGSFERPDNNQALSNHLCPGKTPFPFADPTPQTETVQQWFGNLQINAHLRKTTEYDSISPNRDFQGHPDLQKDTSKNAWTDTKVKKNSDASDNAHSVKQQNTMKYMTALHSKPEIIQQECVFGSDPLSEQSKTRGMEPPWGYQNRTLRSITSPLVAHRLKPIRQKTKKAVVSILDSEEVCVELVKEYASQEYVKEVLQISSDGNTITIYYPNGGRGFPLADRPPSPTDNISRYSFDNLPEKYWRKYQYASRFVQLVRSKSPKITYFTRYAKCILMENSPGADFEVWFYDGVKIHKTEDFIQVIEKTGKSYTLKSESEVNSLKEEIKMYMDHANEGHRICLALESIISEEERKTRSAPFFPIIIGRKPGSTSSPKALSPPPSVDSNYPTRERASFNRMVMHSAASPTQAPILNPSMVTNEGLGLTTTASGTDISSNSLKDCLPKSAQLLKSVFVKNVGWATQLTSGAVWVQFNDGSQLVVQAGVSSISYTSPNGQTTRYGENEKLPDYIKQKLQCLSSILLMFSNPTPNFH

C=CC(=O)NC1CCN(c2ncc3ncnc(Nc4ccc(Oc5ccc6c(c5)ncn6C)c(C)c4)c3n2)CC1
half-life (male human, plasma; oral, 60 mg, single dose, healthy volunteers): 45.2 h

CNC(=O)n1ccc2cc(Oc3ccnc(NC(=O)c4ccc(C5CCN(CCO)CC5)cc4)c3)c(OCCOC)cc21
half-life (human, plasma; oral, 35 mg, single dose, fasted, healthy volunteers): 30 h

C[C@@H](Oc1ccc(S(C)(=O)=O)cc1C(=O)N1C[C@@H]2C[C@]2(c2cc(C(F)(F)F)on2)C1)C(F)(F)F
half-life (human, plasma; oral, 10 mg, single dose, fed): 39.1 h

NS(=O)(=O)OC[C@@H]1C[C@@H](n2ccc3c(N[C@H]4CCc5ccccc54)ncnc32)C[C@@H]1O
half-life (human, plasma; intravenous, 15 mg/m², single dose, patients): 5.7 h

CNc1ncc2c(/C=C/C(=O)N3CCC(OC)CC3)nn(Cc3cccc(C(F)(F)F)c3)c2n1
remaining activity (PLK4 (Homo sapiens, UniProt O00444); enzyme activity, inhibitor, radiometric; 1 µM): 82%

COc1ccc([C@@H](O)c2cc(-c3ncnc4cc(N5CCOCC5)ccc34)c(F)cc2Cl)nn1
half-life (human, plasma; oral, 300 mg, multiple doses, twice daily, patients): 11.4 h

O=C(COc1ccc(Cl)cc1)NC12CC(c3nnc([C@H]4C[C@@H](OC(F)(F)F)C4)o3)(C1)C2
half-life (human, plasma; oral, 100 mg, single dose, fasted, healthy volunteers): 39 h

OC[C@H]1O[C@@H](c2cc(Cc3ccc(C4CC4)cc3)c(Cl)c3c2CCO3)[C@H](O)[C@@H](O)[C@@H]1O
half-life (human, plasma; oral, 0.3 mg, single dose, fed, healthy volunteers): 12.3 h

N#Cc1cccc(-c2ccc3ncc(-c4cc(F)cc(F)c4)c(N4CCC(N)CC4)c3c2)c1O
half-life (human, plasma; oral, 20 mg, single dose): 28 h

COc1ccc([C@@H]2CN(C(=O)[C@@H](O)CO)C[C@@]2(C)[C@@H](C)O)cc1OC1CN(c2ccc(C)cn2)C1
half-life (human, plasma; oral, 20 mg, single dose, healthy volunteers): 9.39 h

CC(C)=CCC/C(C)=C/CC/C(C)=C/CC[C@@](C)(O)CCC1=C(C)C(=O)C(C)=C(C)C1=O
half-life (human, plasma; oral, 400 mg, single dose, healthy volunteers): 10.9 h

CC(=O)N(C)[C@H]1CCN(C(=O)c2cnc3c(c2)C[C@](C)(c2ccc(F)cc2)N3)C1
half-life (male human, plasma; oral, 60 mg, multiple doses, once daily, steady state): 28.4 h

COc1ccc2c(c1)CN(C(=O)CCN1CCC(Cc3ccccc3)CC1)CC[S@@+]2[O-]
half-life (male human, plasma; intravenous, 0.6 mg/kg, single dose, healthy volunteers): 4.52 h

Repeated from above:
C[C@@H](Oc1ccc(S(C)(=O)=O)cc1C(=O)N1C[C@@H]2C[C@]2(c2cc(C(F)(F)F)on2)C1)C(F)(F)F
half-life (human, plasma; oral, 10 mg, single dose, fed): 39.1 h
